# Published values gathered from unrelated publications.
# Protocols differ between the studies behind these lines.
Compound,organism,assay,system,conditions,how to read,quantity,value
O=c1[nH]cc(C(c2ccc(Br)cc2)c2c[nH]c(=O)[nH]c2=O)c(=O)[nH]1,HIV-1 subtype C,refers to: p24,,concentration not given,,antiviral activity,inactive
N#Cc1ccc2cccc(O)c2n1,Listeria monocytogenes,"microbial growth, agar dilution",,,,MIC,1500 µM
COc1cc(/C=C/C(=O)N[C@@H](CCCCCC(=O)NO)C(=O)Nc2cccc3cccnc23)cc(OC)c1O,Lucilia cuprina,pupation,"LS strain, larvae on impregnated cotton wool",216 h,,IC50,> 1000 µg
CN1C[C@H](c2cccc(C(F)(F)F)c2)[C@@H](C(=O)Nc2ccccc2F)C1=O,Arabidopsis thaliana,root length,overexpressing mutant DHODH MT-8,5 µM,reference: non-transgenic wild type,resistance,~5.4 fold
C=CC1CN(C(=O)NCC=CCSCC=CCNC(=O)N2CC(C=C)OC2=S)C(=S)O1 (stereo not shown),Enterovirus B,"viral replication, inhibitor",B3,,,IC50,710 nM
Cc1ccccc1C(c1c[nH]c(=O)[nH]c1=O)c1c[nH]c(=O)[nH]c1=O,HIV-1 subtype C,"viral replication, refers to: p24",,,,IC50,152 µg/mL
COc1ccc(-n2c(=O)c(C(=O)C3C(=O)CCCC3=O)nc3c(Cl)cccc32)cc1,Monochoria vaginalis,"herbicidal activity, paddy pot test, visual rating",,28 days,,ED90,6.3 g a.i./10 a
C=C(C)[C@@H]1CC[C@]2(CCCNCCN3CCS(=O)(=O)CC3)CC[C@]3(C)[C@H](CC[C@@H]4[C@@]5(C)CC[C@H](OC(=O)CC(C)(C)C(=O)O)C(C)(C)[C@@H]5CC[C@]43C)[C@@H]12,human immunodeficiency virus 1,western blot,"HEK293T transfected, subtype B NL4-3, virion lysates",100 nM,reference: total CA,CA-SP1 accumulation,< 1%
CCc1cccc2c(C(=O)COC(=O)C34CC5CC(CC(Br)(C5)C3)C4)c[nH]c12,Arabidopsis thaliana,refers to: STH7,seedlings,"20 µM, 24 h, 10-day-old seedlings",,mRNA level,decreased
COC1C=COC2(C)Oc3c(C)c(O)c4c(c3C2=O)C2=NC3(CCN(CC(C)C)CC3)NC2=C(NC(=O)C(C)=CC=CC(C)C(O)C(C)C(O)C(C)C(OC(=O)Nc2cnccn2)C1C)C4=O (stereo not shown),Mycobacteroides abscessus,,ATCC 19977,50% human serum,,IC50,45 nM
C=Cc1cn([C@@H]2O[C@H](CO)C[C@H]2O)c2ncnc(N)c12,Trypanosoma vivax,"parasite growth, resazurin",,24 h,,EC50,1570 nM
C=C(C)[C@@H]1CC[C@]2(CNCCN3CCN(S(C)(=O)=O)CC3)CC[C@]3(C)[C@H](CC[C@@H]4[C@@]5(C)CC[C@H](OC(=O)CC(C)(C)C(=O)O)C(C)(C)[C@@H]5CC[C@]43C)[C@@H]12,human immunodeficiency virus 1,western blot,"HEK293T transfected, subtype B NL4-3, virion lysates",100 nM,reference: total CA,CA-SP1 accumulation,70 to 75%
CN(C)CCCSC(=S)N1CCN(C(=O)/C=C/c2coc3ccccc3c2=O)CC1,CMV,virus inactivation,,"500 µg/mL, mean",,inhibition,76.6%
COc1ccc(-c2ccn(CC[C@](C)(C(=O)NO)S(C)(=O)=O)c(=O)c2)c(F)c1,Enterobacter spp,,,,,MIC90,0.5 µg/mL
COc1ccc(-n2c(=O)c(C(=O)C3C(=O)CCCC3=O)nc3c(F)cccc32)cc1,Monochoria vaginalis,"herbicidal activity, paddy pot test, visual rating",,28 days,,ED90,6.3 g a.i./10 a
Nc1ncnc2c1c(Br)cn2[C@H]1C[C@H](O)[C@@H](CO)O1,Trypanosoma vivax,"parasite growth, resazurin",,24 h,,EC50,4300 nM
Fc1ccc2c(c1)c1nc3ccc(Br)cc3c-1cn2Cc1cn(-c2ccccc2I)nn1,Giardia duodenalis,EB/AO staining,,concentration not given,reference: untreated,apoptotic cells,increased
C[OH+][Cu-2]12[O]C(c3cn(-c4ccccc4)nc3-c3ccccc3)=N[N+]1=C(C)c1c(cc(C)oc1=O)[O]2 (stereo not shown),Plasmodium falciparum,,3D7,"100 µg/mL, 72 h",,parasitaemia suppression,100%
CC(C)Oc1cccc(NC(=O)CCCN2C(=O)c3ccccc3C2=O)c1,Arabidopsis thaliana,"qRT-PCR, refers to: YUC6",,"concentration not given, 60 min",,mRNA level,decreased
Oc1c(Br)cc(Br)c2nc3c(C(F)(F)F)cc(C(F)(F)F)cc3nc12,Staphylococcus aureus,microbial killing,147,clinical isolate,,MBC,0.78 µM
CC[C@@H](C)[C@@H](NC(=O)[C@@H](C)NC(=O)[C@@H](CCCCN)NC(=O)[C@@H](CC(C)C)NC(=O)[C@@H](CC(C)C)NC(=O)[C@H](NC(=O)[C@@H](CCCCN)NC(=O)[C@@H](CC(C)C)NC(=O)[C@@H](CCCCN)NC(=O)[C@@H](CCCCN)NC(=O)[C@@H](CCCCN)NC(=O)[C@@H](CCCCN)NC(=O)[C@@H](C)NC(=O)[C@@H](CCCCN)NC(=O)[C@@H](CO)NC(=O)[C@@H](Cc1ccccc1)NC(=O)[C@H](NC(=O)[C@@H](CCCCN)NC(=O)[C@@H](CC(C)C)NC(=O)[C@@H](Cc1ccccc1)NC(=O)[C@@H](CO)NC(=O)[C@@H](CCCCN)NC(=O)[C@@H](Cc1c[nH]c2ccccc12)NC(=O)[C@@H](CCCCN)NC(C)=O)[C@H](C)O)[C@H](C)O)C(=O)N[C@H](CO)C(=O)N[C@H](CCCCN)C(N)=O,Acinetobacter baumannii,,"985, Mueller-Hinton broth","24 h, 37 °C",,MIC,0.6 µM
CC(C)(C)OC(=O)Nc1ccc(-c2cc(C(=O)NCCCCCCC(=O)NO)no2)cc1,Lucilia cuprina,pupation,"LS strain, larvae on impregnated cotton wool",216 h,,IC50,> 1000 µg
Brc1ccc(-c2c[nH]c(-c3ccccn3)n2)cc1,Schistosoma mansoni,,female worms,50 µM,,worm killing,0%
Cc1ccc(O)c(C=NNC(=N)NO)n1,human adenovirus 5,viral replication,"A549, McEwen",120 µM,,plaque reduction,75%
COc1ccc(-c2cn(C3CCCC3)c3ncnc(N)c23)cc1,Plasmodium falciparum,,FVO,invasion IC50,,schizont rupture,no effect
CC(C)C(C(=O)Nc1ccc(C(=O)NO)cc1)c1ccccc1 (stereo not shown),Lucilia cuprina,larval growth,larvae,,"reference: cyromazine IC50 over cpd IC50, higher = less potent than reference",potency ratio,~10 fold
O=c1[nH]cc(C(c2ccccc2Cl)c2c[nH]c(=O)[nH]c2=O)c(=O)[nH]1,HIV-1 subtype C,refers to: p24,,concentration not given,,antiviral activity,inactive
Oc1c(Br)ccc2cccnc12,Shewanella putrefaciens,agar dilution,ATCC 8071,,,MIC,35.7 µM
O=C(NO)c1ccc(CC(=O)N(CCO)c2ccccc2)cc1,Lucilia cuprina,larval weight gain,"LS strain, larvae on impregnated cotton wool",24 h,,IC50,> 1000 µg
Oc1c(Cl)cc(Cl)c2cccnc12,Aeromonas hydrophila,"microbial growth, agar dilution",,,,MIC,37.4 µM
CC1(CCCCCCCCCCCCCCOCCCOP(=O)(O)CO[C@H](CO)Cn2ccc(N)nc2=O)COC1,human adenovirus 5,cytopathic effect,Adenoid 75,,reference: CC50 over EC50,selectivity index,180
COc1ccc(Cn2ccc3ccc(C(=O)NO)cc32)cc1,Lucilia cuprina,larval weight gain,"LS strain, larvae on impregnated cotton wool",24 h,,IC50,> 1000 µg
Nc1ccn(C[C@@H](CO)OCP(=O)(O)OCCCS(=O)(=O)CCCCCCCCCCC2CCC2)c(=O)n1,Betapolyomavirus hominis,qPCR,Gardner,,reference: CC50 over EC50,selectivity index,34
CCN(CC)c1ccc2nc3c4ccccc4/c(=N/c4ccncc4)cc-3oc2c1,Plasmodium falciparum,,NF54,"250 ng/mL, 6 h, rings, trophozoites, schizonts",,growth inhibition,> 99%
CC(C)C[C@H](NC(=O)[C@H](C)N)C(=O)N[C@H](Cc1ccccc1)C(=O)NCCC(=O)O,Lolium multiflorum,radicle growth,agar,"67 µg/mL, 12 days, 20 °C",,inhibition,1%
Nc1ncnc2c1c(-c1ccccn1)cn2[C@@H]1O[C@H](CO)[C@@H](O)[C@H]1O,Trypanosoma vivax,"parasite growth, resazurin",,24 h,,EC50,12900 nM
CN(C)c1ccc(C(=O)N[C@@H](CSCCCC(=O)NO)C(=O)NC2CCCc3ccccc32)cc1 (stereo partly shown),Lucilia cuprina,pupation,"LS strain, larvae on impregnated cotton wool",216 h,,IC50,918 µg
CNc1cc(C(=O)Nc2ccc(Cl)cc2)ccc1OC,duck hepatitis B virus,quantitative PCR,"DHBV-infected Pekin ducklings, serum","oral, 100 mg/kg",,serum DHBV DNA,inhibited
CC(=O)[O-].O.O.O.O.[Co+2].[O-]c1ccc(Br)cc1C=NCCN1CCOCC1,Chromobacterium violaceum,,,20 µL of 100 µM per disc,,inhibition zone diameter,16 mm
CC(C)C(=O)SCCCCCC(NC(=O)OC(C)(C)C)C(=O)NC12CC3CC(CC(C3)C1)C2 (stereo not shown),Lucilia cuprina,pupation,"LS strain, larvae on impregnated cotton wool",216 h,,IC50,> 1000 µg
O=c1[nH]cc(C(c2cccc(C(F)(F)F)c2)c2c[nH]c(=O)[nH]c2=O)c(=O)[nH]1,HIV-1 subtype C,"viral replication, refers to: p24",,,,IC50,192 µg/mL
c1ccc(-c2nc(-c3ccc4ccccc4c3)c[nH]2)cc1,Schistosoma mansoni,worm killing,"mature worms, mixed sexes",96 h,,EC50,> 100000 nM
CC1=CC[C@@H]2[C@H](C1)C2(C)C,Mythimna separata,"olfactory preference, Y-tube olfactometer",,males,reference: liquid paraffin control,choice of control,70%
O=C(NO)c1cccc(C(=O)NCCc2ccccc2)c1,Lucilia cuprina,larval weight gain,"LS strain, larvae on impregnated cotton wool",24 h,,IC50,> 1000 µg
Nc1ncnc2c1c(I)cn2[C@@H]1O[C@H](CO)C[C@H]1O,Trypanosoma vivax,"parasite growth, resazurin",,24 h,,EC50,56 nM
CC1=CC[C@@H]2C[C@H]1C2(C)C,Mythimna separata,"olfactory preference, Y-tube olfactometer",,females,reference: liquid paraffin control,choice of control,77%

# Excerpt of the above:
Compound,organism,assay,system,conditions,how to read,quantity,value
COc1ccc(-c2cn(C3CCCC3)c3ncnc(N)c23)cc1,Plasmodium falciparum,,FVO,invasion IC50,,schizont rupture,no effect
CC(C)C(C(=O)Nc1ccc(C(=O)NO)cc1)c1ccccc1 (stereo not shown),Lucilia cuprina,larval growth,larvae,,"reference: cyromazine IC50 over cpd IC50, higher = less potent than reference",potency ratio,~10 fold
O=c1[nH]cc(C(c2ccccc2Cl)c2c[nH]c(=O)[nH]c2=O)c(=O)[nH]1,HIV-1 subtype C,refers to: p24,,concentration not given,,antiviral activity,inactive
Oc1c(Br)ccc2cccnc12,Shewanella putrefaciens,agar dilution,ATCC 8071,,,MIC,35.7 µM
O=C(NO)c1ccc(CC(=O)N(CCO)c2ccccc2)cc1,Lucilia cuprina,larval weight gain,"LS strain, larvae on impregnated cotton wool",24 h,,IC50,> 1000 µg
Oc1c(Cl)cc(Cl)c2cccnc12,Aeromonas hydrophila,"microbial growth, agar dilution",,,,MIC,37.4 µM
